Measured values gathered from unrelated publications.
± marks the error that the study gave.

Molecule | target or system | test | test system | conditions | quantity | value
O=c1nc[nH]c2c1ncn2[C@H]1CC[C@@H](CO)O1 | SARS-CoV-2 | infectious virus yield | Vero C1008, VOC-202012/01 | 48 h, 50% decrease endpoint | EC50 | ~3100 nM
[N-]=[N+]=N[C@]1(CO)O[C@@H](n2ccc(N)nc2=O)[C@@H](F)[C@@H]1O | SARS-CoV-2 | viral replication, imaging | Calu-3, Omicron BA.1 |  | EC50 | > 50000 nM
CSc1ccc2c(c1)C(N1CCN(C)CC1)Cc1ccccc1S2 (stereo not shown) | SARS-CoV-2 | viral replication, high-content imaging screen |  | cell-based | EC50 | > 100000 nM
Nc1ncnc2c([C@@H]3N[C@H](CO)[C@@H](O)[C@H]3O)c[nH]c12 | Nipah henipavirus | viral replication | HeLa, Malaysia | 12.5 µM | inhibition | 1.2%
CCC(CC)COC(=O)[C@H](C)N[P@](=O)(OC[C@H]1O[C@@](C#N)(c2ccc3c(N)ncnn23)[C@H](O)[C@@H]1O)Oc1ccccc1 | SARS-CoV-2 | cytopathic effect | Vero, UC-1074 | 5 days | EC50 | 1100 ± 100 nM
CC(C)(C)[C@H](NC(=O)C(F)(F)F)C(=O)N1C[C@H]2[C@@H]([C@H]1C(=O)N[C@H](C#N)C[C@@H]1CCNC1=O)C2(C)C | SARS-CoV-2 | viral replication | Huh-7.5.1 |  | EC50 | 190 nM
CCC(CC)COC(=O)[C@H](C)N[P@](=O)(OC[C@H]1O[C@@](C#N)(c2ccc3c(N)ncnn23)[C@H](O)[C@@H]1O)Oc1ccccc1 | SARS-CoV-2 | viral replication | Vero C1008, prototype |  | EC50 | 1300 nM
COc1ccc2c(c1)N(CCCN(C)C)c1ccccc1S2 | SARS-CoV-2 | viral replication, high-content imaging screen |  | cell-based | EC50 | > 100000 nM
CC(C)(C)OC(=O)Nc1cccn([C@@H](CC2CC2)C(=O)N[C@@H](C[C@@H]2CCNC2=O)C(=O)C(=O)NCc2ccccc2)c1=O | SARS-CoV-2 | viral replication |  |  | EC50 | 800 to 3400 nM
COc1c2ccoc2c(OCC=C(C)C)c2oc(=O)ccc12 | SARS-CoV-2 | viral replication | Calu-3, mNeonGreen reporter |  | EC50 | 6400 ± 900 nM
COc1ccc(F)c2[nH]c(C(=O)N[C@@H](CC(C)C)C(=O)N[C@@H](C[C@@H]3CCNC3=O)C(=O)c3nc4c(F)cccc4s3)cc12 | SARS-CoV-2 | viral replication, RT-qPCR | VeroE6, WK-521 |  | EC50 | 290 ± 56 nM
COc1ccc2cc(-c3cc(-c4cc(Cl)cc(Cl)c4)nn3[C@@H](C)c3ccc(C(=O)NCCC(=O)O)cc3)ccc2c1 | SARS-CoV-2 | virus-induced cytopathic effect | Vero E6, USA-WA1/2020 | 72 h | EC50 | 3160 nM
C[C@@H]1CN(c2ncc(C(O)CO)cc2Cl)CCN1c1nc2c(-c3cc(F)c(F)c(F)c3)cc(C(F)(F)F)cc2[nH]1 (stereo partly shown) | SARS-CoV-2 | viral replication | 293T-ACE2, USA-WA1/2020 | 24 h | EC50 | 1900 nM
Cn1cnc(Cn2c(=O)[nH]/c(=N\c3cc4cn(C)nc4cc3Cl)n(Cc3cc(F)c(F)cc3F)c2=O)n1 | SARS-CoV-2 | viral replication | Vero C1008, Delta |  | EC50 | 190 nM
COc1ccc(C(=O)Nc2ccccc2C(=O)N[C@H](C(=O)N[C@H](CO)C(C)C)C(C)C)cc1 | SARS-CoV-2 | plaque formation, plaque reduction | Vero E6 | 72 h | EC50 | 30000 ± 6900 nM
CC[C@H](NC(=O)[C@H](CS(=O)(=O)CC1CC1)N[C@@H](c1ccc(F)cc1)C(F)(F)F)C(=O)C(=O)NC1CC1 | SARS-CoV-2 | viral replication | 293T-ACE2, USA-WA1/2020 | 24 h | EC50 | 70 nM
CN1CCC(CN2c3ccccc3Sc3ccccc32)C1 (stereo not shown) | SARS-CoV-2 | viral replication, GFP plate reader screen |  | cell-based | EC50 | 16200 nM
CN(C)c1ccc(N(Cc2cc(Cl)cs2)C(=O)Cc2cncc3ccccc23)cc1 | SARS-CoV-2 | nucleocapsid staining | Caco-2, Omicron BQ.1.1 |  | EC50 | 200 ± 100 nM
calpain inhibitor III | SARS-CoV-2 | viral replication | 293T-ACE2, USA-WA1/2020 |  | EC50 | 21 nM
COc1cc(Nc2ccnc3ccc(Br)cc23)cc(OC)c1OC | SARS-CoV-2 | viral replication | Vero E6, USA-WA1/2020 |  | EC50 | 200 nM
CC(C)[C@H](NC(=O)c1ccccc1NC(=O)c1ccccn1)C(=O)N[C@H](CO)C(C)C | SARS-CoV-2 | plaque formation, plaque reduction | Vero E6 | 72 h | EC50 | 2100 ± 1100 nM
C[C@@H]1CS/C(=N\NC(=O)C(=O)[C@H](NC(=O)C2CCCCCC2)C2CCOCC2)N1C | SARS-CoV-2 | viral replication | 293T-ACE2, USA-WA1/2020 | 24 h | EC50 | 42 nM
Cc1cccc(/C=N/Nc2cc(N3CCOCC3)nc(OCCc3ccccn3)n2)c1 | SARS-CoV-2 | viral replication |  |  | EC50 | 420 nM
CC(C)(C)[C@H](NC(=O)C(F)(F)F)C(=O)N1C[C@H]2[C@@H]([C@H]1C(=O)N[C@H](C#N)C[C@@H]1CCNC1=O)C2(C)C | SARS-CoV-2 | viral replication | Calu-3, Omicron BA.2 |  | EC50 | 900 nM
OCC1=C(F)[C@@H](n2nnc3c(NO)ncnc32)[C@H](O)[C@@H]1O | SARS-CoV-2 | viral replication, spike protein immunostaining | Vero | 48 h | EC50 | > 100000 nM
Nc1nc2nn[nH]c2c(=O)[nH]1 | SARS-CoV-2 | viral replication, high-content imaging screen |  | cell-based | EC50 | > 50100 nM

Molecule | target or system | test | test system | conditions | quantity | value
COc1ccc(C(=O)Nc2ccccc2C(=O)N[C@H](C(=O)Nc2ccccc2)C(C)C)cc1 | SARS-CoV-2 | plaque formation, plaque reduction | Vero E6 | 72 h | EC50 | > 50000 nM
CC(C)(C)[C@H](NC(=O)C(F)(F)F)C(=O)N1C[C@H]2[C@@H]([C@H]1C(=O)N[C@H](C#N)C[C@@H]1CCNC1=O)C2(C)C | SARS-CoV-2 | viral replication, qRT-PCR of viral RNA | Calu-3, Washington |  | EC50 | 1800 ± 800 nM
Cc1c(-c2ccccc2)oc2c(C(=O)OC(C)(C)CN3CCCCC3)cccc2c1=O | SARS-CoV-2 | viral replication, high-content imaging screen |  | cell-based | EC50 | > 100000 nM
CC(C)(C)[C@H](NC(=O)C(F)(F)F)C(=O)N1C[C@H]2[C@@H]([C@H]1C(=O)N[C@H](C#N)C[C@@H]1CCNC1=O)C2(C)C | SARS-CoV-2 |  | Vero C1008, XBB.1 |  | EC50 | 1220 nM
CC(C)(C)[C@H](NC(=O)C(F)(F)F)C(=O)N1C[C@H]2[C@@H]([C@H]1C(=O)N[C@@H](C[C@@H]1CCNC1=O)C(=O)c1nc3ccc(F)cc3s1)C2(C)C | SARS-CoV-2 | viral replication | Vero C1008, JPN/TY/WK-521 (ancestral Wuhan) |  | EC50 | 40 nM
NC(CO)(CO)CCc1ccc(Sc2cccc(OCc3ccccc3)c2)cc1Cl | SARS-CoV-2 | viral replication, GFP plate reader screen |  | cell-based | EC50 | 3310 nM
(R)-hydroxychloroquine sulfate | SARS-CoV-2 | viral replication, measured: viral RNA in supernatant | Vero E6 | 48 h | EC50 | 3050 nM
CCc1cc(Br)cc2c(C(=O)N3CCOCC3)cc(-c3ccc(OC)cc3)nc12 | SARS-CoV-2 | plaque formation, plaque reduction | Vero E6 | 72 h | EC50 | 7200 ± 1000 nM
O=C[C@H](C[C@@H]1CCNC1=O)NC(=O)[C@H](CC1CCCCC1)NC(=O)c1cc2ccccc2[nH]1 | SARS-CoV-2 | viral replication | Vero E6, 2019-nCoV-WIV04 | 40% human serum | EC50 | 2140 nM
CCC(CC)COC(=O)[C@H](C)N[P@](=O)(OC[C@H]1O[C@@](C#N)(c2ccc3c(N)ncnn23)[C@H](O)[C@@H]1O)Oc1ccccc1 | SARS-CoV-2 | viral replication | A549-ACE2-TMPRSS2, WA1 | 24 h | EC50 | 60 nM
CC[C@H](C)[C@H](NC(=O)[C@H](CC(C)C)NC(=O)[C@H](Cc1c[nH]c2ccccc12)NC(=O)[C@H](CCC(N)=O)NC(=O)[C@@H](NC(=O)[C@H](Cc1ccccc1)NC(=O)[C@H](C)NC(=O)[C@H](CCCCNC(=O)COCCOCCNC(=O)COCCOCCNC(=O)CC[C@H](NC(=O)CCCCCCCCCCCCCCCCCCC(=O)O)C(=O)O)NC(=O)[C@H](CCC(N)=O)NC(=O)[C@H](C)NC(=O)[C@@H](NC(=O)[C@H](CCCCN)NC(=O)[C@H](CC(=O)O)NC(=O)[C@H](CC(C)C)NC(=O)C(C)(C)NC(=O)[C@@H](NC(=O)[C@H](CO)NC(=O)[C@H](Cc1ccc(O)cc1)NC(=O)[C@H](CC(=O)O)NC(=O)[C@H](CO)NC(=O)[C@@H](NC(=O)[C@H](Cc1ccccc1)NC(=O)[C@@H](NC(=O)CNC(=O)[C@H](CCC(=O)O)NC(=O)C(C)(C)NC(=O)[C@@H](N)Cc1ccc(O)cc1)[C@@H](C)O)[C@@H](C)O)[C@@H](C)CC)[C@@H](C)CC)C(C)C)C(=O)N[C@@H](C)C(=O)NCC(=O)NCC(=O)N1CCC[C@H]1C(=O)N[C@@H](CO)C(=O)N[C@@H](CO)C(=O)NCC(=O)N[C@@H](C)C(=O)N1CCC[C@H]1C(=O)N1CCC[C@H]1C(=O)N1CCC[C@H]1C(=O)N[C@@H](CO)C(N)=O |  | measured: Headache | healthy subjects | 5/5/8/10 mg titrated, multiple ascending dose | subjects with adverse events | 28.6%
Cn1cnc(Cn2c(=O)[nH]/c(=N\c3cc4cn(C)nc4cc3Cl)n(Cc3cc(F)c(F)cc3F)c2=O)n1 | SARS-CoV-2 | viral replication | USA-WA1/2020 | 24 h | EC50 | 100 nM
COc1ccc(C(=O)COC(=O)C(Cc2ccccc2)N2C(=O)C3C4C=CC(C4)C3C2=O)cc1 (stereo not shown) | SARS-CoV-2 | plaque formation, plaque reduction | Vero E6 | 72 h | EC50 | > 50000 nM
CC(C)=CCC1=C(O)C(=O)c2ccccc2C1=O | SARS-CoV-2 | viral replication | Calu-3 | 48 h | EC50 | 1500 ± 100 nM
C=CC[C@H](NC(=O)CCl)C(=O)N[C@@H](Cc1c[nH]c2ccccc12)C(=O)NCc1ccccc1 | SARS-CoV-2 | viral replication | Vero, UC-1074 |  | EC50 | 320 to 5980 nM
O=C(Nc1ccccc1F)c1cc2c(=O)n3ccccc3nc2n1Cc1ccccc1 | SARS-CoV-2 | viral replication | Vero E6 |  | EC50 | 13.8 nM
CC(C)/N=c1\cc2n(-c3ccc(Cl)cc3)c3ccccc3nc-2cc1Nc1ccc(Cl)cc1 | SARS-CoV-2 | viral replication | 293T-ACE2, USA-WA1/2020 | 24 h | EC50 | ~500 nM
CC(C)(C)c1ccc(C(O)CCCN2CCC(C(O)(c3ccccc3)c3ccccc3)CC2)cc1 (stereo not shown) | SARS-CoV-2 | viral replication, high-content imaging screen |  | cell-based | EC50 | > 100000 nM
CC(C)=CCN1Cc2cc(Cl)cc3[nH]c(=S)n(c23)C[C@@H]1C | SARS-CoV-2 | viral replication | 293T-ACE2, USA-WA1/2020 | 24 h | EC50 | 70 nM
O=C[C@H](C[C@@H]1CCNC1=O)NC(=O)[C@H](CC1CCCCC1)N1C[C@@H](NC(=O)OCc2ccccc2)CCC1=O | SARS-CoV-2 | viral replication | Vero C1008, USA-WA1/2020 |  | EC50 | 18900 nM
N#C[C@@]1(n2ccc(N)nc2=O)O[C@H](CO)[C@@H](O)[C@H]1O | SARS-CoV-2 | viral replication, cell-based | Washington |  | EC50 | 500 ± 800 nM
CCC(CC)COC(=O)[C@H](C)N[P@](=O)(OC[C@H]1O[C@@](C#N)(c2ccc3c(N)ncnn23)[C@H](O)[C@@H]1O)Oc1ccccc1 | SARS-CoV-2 | viral replication | Vero E6 |  | EC50 | 5.91 nM
COc1ccc(NC2=NC(=O)CC(C(=O)NCc3ccccc3)N2)cc1 (stereo not shown) | SARS-CoV-2 | plaque formation, plaque reduction | Vero E6 | 72 h | EC50 | > 50000 nM
CN(C)c1ccc(N(Cc2cc(Cl)cs2)C(=O)Cc2cncc3cccc(O)c23)cc1 | SARS-CoV-2 | nucleocapsid staining | Caco-2, Omicron XBB.1.5 |  | EC50 | 50 ± 30 nM
COC(=O)C1=C(CN2CCN(C(=O)OC(C)(C)C)CC2)NC(=O)NC1c1ccccc1 (stereo not shown) | SARS-CoV-2 | plaque formation, plaque reduction | Vero E6 | 72 h | EC50 | 36000 ± 13400 nM
OC1(c2ccc(Cl)c(C(F)(F)F)c2)CCN(CCCC(c2ccc(F)cc2)c2ccc(F)cc2)CC1 | SARS-CoV-2 | viral replication, GFP plate reader screen |  | cell-based | EC50 | > 100000 nM

Some of these lines once more:
Molecule | target or system | test | test system | conditions | quantity | value
CC(C)(C)[C@H](NC(=O)C(F)(F)F)C(=O)N1C[C@H]2[C@@H]([C@H]1C(=O)N[C@@H](C[C@@H]1CCNC1=O)C(=O)c1nc3ccc(F)cc3s1)C2(C)C | SARS-CoV-2 | viral replication | Vero C1008, JPN/TY/WK-521 (ancestral Wuhan) |  | EC50 | 40 nM
NC(CO)(CO)CCc1ccc(Sc2cccc(OCc3ccccc3)c2)cc1Cl | SARS-CoV-2 | viral replication, GFP plate reader screen |  | cell-based | EC50 | 3310 nM
(R)-hydroxychloroquine sulfate | SARS-CoV-2 | viral replication, measured: viral RNA in supernatant | Vero E6 | 48 h | EC50 | 3050 nM
CCc1cc(Br)cc2c(C(=O)N3CCOCC3)cc(-c3ccc(OC)cc3)nc12 | SARS-CoV-2 | plaque formation, plaque reduction | Vero E6 | 72 h | EC50 | 7200 ± 1000 nM
